Experimental data collected from several papers.
Each numbered part is a random draw from the data of one study; scales do not carry over between parts.

Study 1 — effect on: enzyme activity; mode: inhibitor; tested at: 20 µM; setting: primary screen; measurement: inhibition
Target: Replicase polyprotein 1ab, main protease (rep, Severe acute respiratory syndrome coronavirus 2, UniProt P0DTD1)
SMILES = Nc1nc(-c2ccc(Cl)c(Cl)c2)c(-c2ccncc2)s1; value = 46.8%
SMILES = O=C(O)/C=C/c1ccc(O)c(O)c1; value = 29.4%
SMILES = O=C1c2c(O)cc(O)cc2O[C@H](c2cc(O)c(O)c(O)c2)[C@H]1O; value = 99.7%
SMILES = CN(CCCN1c2ccccc2CCc2ccccc21)CC(=O)c1ccc(Cl)cc1; value = 81.7%

Study 2 — organism: Vesicular stomatitis virus; effect on: pseudovirus infection; method: FDA-approved drug library screen; tested at: concentration not given; setting: SARS-CoV-2 spike pseudotype; reference: vehicle; measurement: GFP-positive cells
SMILES = CC(C)OC(=O)[C@H](C)N[P@](=O)(OC[C@H]1O[C@@H](n2ccc(=O)[nH]c2=O)[C@](C)(F)[C@@H]1O)Oc1ccccc1; value = 95.1%
SMILES = Nc1nc(N)c2nc(-c3ccccc3)c(N)nc2n1; value = 72.2%
SMILES = NC(N)=O; value = 71.7%

Study 3 — mode: inhibitor; tested at: 20 µM; measurement: inhibition
Target: Replicase polyprotein 1ab, nsp13 helicase (rep, Severe acute respiratory syndrome coronavirus 2, UniProt P0DTD1)
Compound = CN(C)N=Nc1ccc(C(=O)O)cc1; value = 1.89%
Compound = Cc1cc(CN2CCN(c3c(Br)cnc4nc(-c5ccc(N6CCN(C)CC6)cc5)[nH]c34)CC2)no1; value = 2.95%
Compound = CCc1[nH]c(=O)[nH]c1C(=O)c1ccncc1; value = -0.17%
Compound = CCCCCCCC/C=C\CCCCCCCC(=O)N[C@@H](CO)Cc1ccc(O)cc1; value = -4.67%
Compound = O=C(O)Cc1ccc(-c2ccccc2)cc1; value = 5.08%
Compound = CNC[C@@H]1CC[C@@H](N)[C@@H](O[C@H]2[C@H](O)[C@@H](O[C@H]3OC[C@](C)(O)[C@H](NC)[C@H]3O)[C@H](N)C[C@@H]2N)O1; value = -4.05%
Compound = CC(C)Cc1ccc(C(C)C(=O)NCCO)cc1 (stereo not shown); value = 4.63%
Compound = NC(N)=Nc1nc(CSCC/C(N)=N/S(N)(=O)=O)cs1; value = 1.38%

Mixed results
SMILES = CC[C@H](C)[C@H](NC(=O)[C@H](CC(C)C)NC(=O)[C@H](Cc1c[nH]c2ccccc12)NC(=O)[C@H](CCC(N)=O)NC(=O)[C@@H](NC(=O)[C@H](Cc1ccccc1)NC(=O)[C@H](C)NC(=O)[C@H](CCCCNC(=O)COCCOCCNC(=O)COCCOCCNC(=O)CC[C@H](NC(=O)CCCCCCCCCCCCCCCCCCC(=O)O)C(=O)O)NC(=O)[C@H](CCC(N)=O)NC(=O)[C@H](C)NC(=O)[C@@H](NC(=O)[C@H](CCCCN)NC(=O)[C@H](CC(=O)O)NC(=O)[C@H](CC(C)C)NC(=O)C(C)(C)NC(=O)[C@@H](NC(=O)[C@H](CO)NC(=O)[C@H](Cc1ccc(O)cc1)NC(=O)[C@H](CC(=O)O)NC(=O)[C@H](CO)NC(=O)[C@@H](NC(=O)[C@H](Cc1ccccc1)NC(=O)[C@@H](NC(=O)CNC(=O)[C@H](CCC(=O)O)NC(=O)C(C)(C)NC(=O)[C@@H](N)Cc1ccc(O)cc1)[C@@H](C)O)[C@@H](C)O)[C@@H](C)CC)[C@@H](C)CC)C(C)C)C(=O)N[C@@H](C)C(=O)NCC(=O)NCC(=O)N1CCC[C@H]1C(=O)N[C@@H](CO)C(=O)N[C@@H](CO)C(=O)NCC(=O)N[C@@H](C)C(=O)N1CCC[C@H]1C(=O)N1CCC[C@H]1C(=O)N1CCC[C@H]1C(=O)N[C@@H](CO)C(N)=O; item = anti-drug antibodies; species = patients with type 2 diabetes; dose = 5/5/10/10 mg escalating; setting = titer ≥1:20; measurement = subjects with treatment-induced ADA; value = 0%

Some of these lines once more (study 3):
Compound = Cc1cc(CN2CCN(c3c(Br)cnc4nc(-c5ccc(N6CCN(C)CC6)cc5)[nH]c34)CC2)no1; value = 2.95%
Compound = O=C(O)Cc1ccc(-c2ccccc2)cc1; value = 5.08%
